Results gathered from unrelated publications.
Numbered parts are unrelated; each lists some results of a single study.

Sample 1
Target: Phosphate system positive regulatory protein PHO4, full length, GST-tagged (PHO4, Saccharomyces cerevisiae, UniProt P07270, residues 1-312)
Method: competition protein-binding microarray
Form: double-stranded DNA, one strand shown
Matrix: in vitro
Tested at: 2 µM
Notes: whole 60-bp probe, lowest competitor level
Added: Cbf1 competitor, 0.05 µM
Direction: higher = stronger binding
All sequences stand within: … GTCTTGATTCGCTTGACGCTGCTG
Target sequence (chain): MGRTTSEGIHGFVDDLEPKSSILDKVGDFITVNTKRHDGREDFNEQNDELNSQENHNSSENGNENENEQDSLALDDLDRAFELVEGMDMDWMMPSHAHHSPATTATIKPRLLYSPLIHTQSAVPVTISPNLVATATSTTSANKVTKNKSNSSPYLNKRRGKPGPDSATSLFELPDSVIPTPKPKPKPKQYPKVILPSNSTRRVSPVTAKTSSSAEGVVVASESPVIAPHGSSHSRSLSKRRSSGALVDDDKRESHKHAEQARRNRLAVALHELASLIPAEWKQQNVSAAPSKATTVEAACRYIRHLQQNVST
Oligonucleotide	fluorescence intensity [a.u.]
CTAACGAAGGTTTGTGTTGTGGGTGACAAGCCAAGT	4920
ACAAGGAAGGTATCCCACCTGACGAACAAAGATTGA	4760
CATACCCAACCTTTTCACGTGTAATAAGATATTTGT	16600
GTAAGACCACAATCCATCGTGTCGGCCCCATGTCGG	8050
TGCGCAACAACTTGAGGAGTGGGTGTATGTCTAGAA	5030
TCGAGAGATAAAGTACATGTGCCTAGGTAAGCTGTA	9680
CGGGGTTAAGTTTGATCCGTGGGTGGCTTGCAGCAG	6190

Sample 2
Substance: PhoQ, residues 284 288 289 292 302 303 SSTLSG
Method: Sort-seq
Item: YFP reporter
Matrix: E. coli
Notes: PhoQ-PhoP variant library
Added: 10 µM Mg2+
Reference: high Mg2+ state
Direction: higher = stronger signaling
target	fold induction
PhoP, residues 12 14 15 18 19 QYFSL (Escherichia coli, UniProt P23836)	10.9
PhoP, residues 12 14 15 18 19 NYFRM (Escherichia coli, UniProt P23836)	7.89
PhoP, residues 12 14 15 18 19 TQALL (Escherichia coli, UniProt P23836)	10.3

Sample 3
Target: Histone acetyltransferase KAT6A, winged helix 2, GST fusion (KAT6A, Homo sapiens, UniProt Q92794, residues 85-181)
Method: protein binding microarray
Form: double-stranded DNA, one strand shown
Matrix: in vitro
Tested at: not given
Notes: 8-mer, flanks averaged, mean of 2 arrays, mostly near background
Reference: not given
Direction: higher = stronger binding
Target sequence (chain): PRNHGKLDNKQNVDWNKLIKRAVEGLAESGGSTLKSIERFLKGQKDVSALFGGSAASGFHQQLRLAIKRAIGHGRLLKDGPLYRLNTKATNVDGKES
Oligonucleotide	E-score
GCGAGCCC	0.0325
CCCTTGGC	0.0927
CTAAGGCC	-0.00613
GCTGTGTA	-0.0152
CGGACCCC	0.125

Sample 4
Target: Ras GTPase-activating protein-binding protein 1, C-terminal RGG region (G3BP1, Homo sapiens, UniProt Q13283)
Chain of UniProt Q13283 (whole entry, looked up): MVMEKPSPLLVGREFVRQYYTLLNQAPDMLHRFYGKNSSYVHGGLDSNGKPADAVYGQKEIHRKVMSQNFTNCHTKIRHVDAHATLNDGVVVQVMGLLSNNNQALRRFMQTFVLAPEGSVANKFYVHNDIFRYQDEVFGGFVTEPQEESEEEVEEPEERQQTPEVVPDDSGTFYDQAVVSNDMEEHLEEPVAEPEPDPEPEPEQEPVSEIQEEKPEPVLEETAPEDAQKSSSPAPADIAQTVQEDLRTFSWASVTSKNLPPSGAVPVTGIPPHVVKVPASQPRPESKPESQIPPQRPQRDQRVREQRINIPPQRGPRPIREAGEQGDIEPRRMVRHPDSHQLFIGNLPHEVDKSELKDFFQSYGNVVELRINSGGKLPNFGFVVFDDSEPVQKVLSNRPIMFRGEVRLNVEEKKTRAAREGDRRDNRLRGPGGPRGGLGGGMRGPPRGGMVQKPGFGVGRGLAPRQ
Method: RNA Bind-n-Seq
Form: RNA
Matrix: in vitro
Tested at: 1 µM
Notes: whole 134-nt RNA, ends assumed
Added: 150 mM KCl
Reference: input library
Direction: higher = stronger binding
All sequences stand within: GGGAGUUCUACAGUCCGACGAUC … UGGAAUUCUCGGGUGUCAAGG
Oligonucleotide	log2 enrichment
CUGUGCUACACAUCGUAUGUACCGAAUCGGGGAAAGGGGUUUUUUUGGGGAAAAAAAGGGGAAAGUAUUAUGUUACGCCGUUCGGAUCUG	-0.449
CUGUGCUACACAUCGUAUGUACCGAAUCGGGGCCCCCCCGGGCCCCCCCGGCCCCCCCGGGGAAAGUAUUAUGUUACGCCGUUCGGAUCU	-2.33
UUUUAAAGUGUUCUCCACCACACUUGGGCAUUUAUCUGUUUCUUUAAAUGGCCUUCUCUGUUUCUUGUUUGCAGGCAGCUAUCAAUGGUG	0.109
UUUAGGUGUUAGACGGUACCGACAACCAGUAUUUGGGCCUGCAGAUUGGACAGCCCCAGGAUGAAGAUGAGGAAGCCACAGGUAUUCUUC	-2.01
AUUAUAGACUUGAUCAAAACACAGGAAAAGGCAACUCCCAGGAACUUUCCGCCACGAUUCCAGGAUGGAUAUUACAGCUGACAGCUUUUC	-1.7

Excerpt of the above (sample 2):
target	fold induction
PhoP, residues 12 14 15 18 19 QYFSL (Escherichia coli, UniProt P23836)	10.9
PhoP, residues 12 14 15 18 19 NYFRM (Escherichia coli, UniProt P23836)	7.89
